Assay results gathered from unrelated publications.
Compare with care: the assays were run in different laboratories. Numbers after ± are the reported error.

C=CC(=O)N1CCC([C@@H]2CCNc3c(C(N)=O)c(-c4ccc(Oc5ccccc5)cc4)nn32)CC1
AUC(0-t) (human; oral, 160 mg, single dose, mean): 1.16 µg·h/mL

C=CC(=O)N1C[C@H](Nc2ncnc3[nH]ccc23)CC[C@@H]1C
AUC(0-t) (adjusted geometric mean; human, plasma; oral, 50 mg single dose, without rifampicin): 0.448 µg·h/mL

O=C(O)[C@H](c1ccccc1Cl)N1CCc2sccc2C1
AUC(0-t) (human patients, CYP3A4 wt/wt, plasma; oral, 75 mg clopidogrel daily, day 7, median): 10.1 µg·h/mL

CC(C)[C@H](N)C(=O)NCCCS(=O)(=O)O
AUC(0-t) (human, both sexes, plasma; oral, 100 mg capsule): 3.61 ± 0.684 µg·h/mL

COc1cc2c(cc1OC)[C@H]1CC(=O)[C@H](CC(C)C)CN1CC2 (racemic)
AUC(0-t) (human CYP2D6 extensive metabolizers, plasma; oral, 25 mg, fasted, arithmetic mean): 0.00018 µg·h/mL

CCOc1ccc(Cc2cc([C@]34OC[C@](CO)(O3)[C@@H](O)[C@H](O)[C@H]4O)ccc2Cl)cc1
AUC(0-t) (healthy human, plasma; oral, 15 mg, 20% glucose solution, with: glimepiride 1 mg): 1.28 µg·h/mL

CN(C)Cc1c(C(=O)NCCOc2ccc(C(=O)NO)cc2)oc2ccccc12
AUC(0-t) (human, plasma; oral, 80 mg single dose): 0.294 ± 0.0765 µg·h/mL

O=C(O)CC[C@H]1CC[C@@](c2cc(F)ccc2F)(S(=O)(=O)c2ccc(Cl)cc2)CC1
AUC(0-t) (human patients, plasma; oral, 1400 mg/m^2 weekly, median, dose 1 of course 1): 1980 µg·h/mL

CNC(=O)c1c(C)oc2cc(Oc3ncnc4cc(OC)c(OC)cc34)ccc12
AUC(0-t) (human, plasma; oral, 5 mg, fed, high-fat meal): 5.23 µg·h/mL

CN(C)[C@@H](CCOc1cccc2ccccc12)c1ccccc1
AUC(0-t) (healthy male humans, plasma; oral, 60 mg, with: udenafil 200 mg): 2.34 ± 0.997 µg·h/mL

Cc1[nH]c(/C=C2\C(=O)Nc3ccc(F)cc32)c(C)c1C(=O)N[C@H]1CCN(C(=O)N(C)C)C1
AUC(0-t) (human, plasma; oral, 200 mg once daily multiple dosing, with: everolimus 5 mg): 6.71 ± 5.32 µg·h/mL

CC(C)[C@@H](CS(=O)(=O)C(C)C)N1C(=O)[C@@](C)(CC(=O)O)C[C@H](c2cccc(Cl)c2)[C@H]1c1ccc(Cl)cc1
AUC(0-t) (human, plasma; oral, 60 mg, new tablet, fasted, geometric LS mean): 2.86 µg·h/mL

CN(Cc1nc2c(N)nc(N)nc2[nH]c1=O)c1ccc(C(=O)N[C@@H](CCC(=O)O)C(=O)O)cc1
AUC(0-t) (human, plasma; oral, 20 mg methotrexate, day 1, alone, arithmetic mean): 1.8 µg·h/mL

CCc1nc(C(N)=O)c(Nc2ccc(N3CCC(N4CCN(C)CC4)CC3)c(OC)c2)nc1NC1CCOCC1
AUC(0-t) (healthy humans, after high-fat breakfast, plasma; oral, 40 mg, single dose): 1.84 µg·h/mL

Cc1cc(-c2nnc(N)nc2-c2ccc(F)cc2)cc(Cl)n1
AUC(0-t) (human patients, plasma; oral, 75 mg capsule, single dose, arithmetic mean): 3.33 µg·h/mL

CCCc1nn(C)c2c(=O)[nH]c(-c3cc(S(=O)(=O)N4CCN(C)CC4)ccc3OCC)nc12
AUC(0-t) (human, male, plasma; oral, dose not given, day 8, with: sacubitril/valsartan): 0.559 µg·h/mL

CNc1nc(Nc2ccc(-n3cnc(C)n3)c(OC)c2)nc2c1CC[C@H]2c1ccc(F)cc1
AUC(0-t) (human; oral, 50 mg once daily, day 1, multiple ascending dose): 1.52 µg·h/mL

COc1cccc(-c2ccc(NC(=O)C3=C(C(=O)O)CCC3)c(F)c2)c1
AUC(0-t) (human, male, plasma; oral, 40 mg once daily, day 13, geometric mean): 285 µg·h/mL

CNCc1ccc(-c2[nH]c3cc(F)cc4c3c2CCNC4=O)cc1
AUC(0-t) (human, plasma; oral, 40 mg once daily, 24 h, steady state, median): 1.05 µg·h/mL

CCCC[C@H](NC(C)=O)C(=O)N[C@H]1CCC(=O)NC[C@@H](C(=O)N[C@@H](Cc2c[nH]c3ccccc23)C(N)=O)NC(=O)[C@H](CCCNC(=N)N)NC(=O)[C@@H](Cc2ccccc2)NC(=O)[C@H](Cc2c[nH]cn2)NC1=O
AUC(0-t) (healthy human, both sexes, plasma; subcutaneous, 3.0 mg once daily, day 1, geometric mean): 0.152 µg·h/mL

CC(C)[C@@H](C)[C@@]1(C)CC[C@]2(C)[C@H]3CC[C@@H]4[C@@]5(COC[C@@]4(C)[C@@H](OC[C@](C)(N)C(C)(C)C)[C@H](n4ncnc4-c4ccncc4)C5)C3=CC[C@@]2(C)[C@@H]1C(=O)O
AUC(0-t) (human, both sexes, plasma; oral, 1250 mg day 1, then 750 mg days 2 and 3, 24 h, day 3, geometric mean): 14.8 µg·h/mL

C=CC(=O)Nc1cc(Nc2ncc(C(=O)OC(C)C)c(-c3cn(C)c4ccccc34)n2)c(OC)cc1N(C)CCN(C)C
AUC(0-t) (human, fasted; oral, 20 mg single dose, arithmetic mean): 0.06 µg·h/mL

CC(=O)c1c(C)c2cnc(Nc3ccc(N4CCNCC4)cn3)nc2n(C2CCCC2)c1=O
AUC(0-t) (human; oral, 50 mg/m^2 repeated doses, day 21): 1.52 µg·h/mL

CCS(=O)(=O)N1CC(CC#N)(n2cc(-c3ncnc4[nH]ccc34)cn2)C1
AUC(0-t) (healthy Chinese human subjects, plasma; oral, 2 mg, single dose, mean): 0.134 µg·h/mL

C=C(C)[C@@H]1CC[C@]2(NCCN3CCS(=O)(=O)CC3)CC[C@]3(C)[C@H](CC[C@@H]4[C@@]5(C)CC=C(C6=CC[C@@](CF)(C(=O)O)CC6)C(C)(C)[C@@H]5CC[C@]43C)[C@@H]12
AUC(0-t) (healthy human volunteers, plasma; oral, 200 mg, tablet, moderate-fat state, mean): 40.7 µg·h/mL

Cc1cc(C)c2c(c1)[C@@H](N(Cc1cc(C(F)(F)F)cc(C(F)(F)F)c1)c1nnn(C)n1)CCCN2C[C@H]1CC[C@H](C(=O)O)CC1
AUC(0-t) (human, plasma; oral, 10 mg once daily, steady state, geometric mean): 0.572 µg·h/mL

CN(C)C(=N)N=C(N)N
AUC(0-t) (human, male; oral, 20 mg): 51.7 µM·h

O=c1[nH]c(=O)c(Cc2cccc(C(F)(F)F)c2)c([C@H]2CC[C@H](c3ccccc3)CC2)[nH]1
AUC(0-t) (human, fasted, plasma; oral, 900 mg single dose, geometric mean): 7.36 µg·h/mL

CNC(=O)c1cc(Oc2ccc(NC(=O)Nc3ccc(Cl)c(C(F)(F)F)c3)cc2)ccn1
AUC(0-t) (human patients, plasma; oral, 400 mg twice daily, day -1, alone, steady state): 90.7 µM·h

CC(C)NC[C@@H](C(=O)N1CCN(c2ncnc3c2[C@H](C)C[C@H]3O)CC1)c1ccc(Cl)cc1
AUC(0-t) (human, Healthy hepatic function, plasma; oral, 100 mg single dose, NCI classification, geometric mean): 0.295 µg·h/mL

Cc1ccc(C(=O)NC2CC2)cc1-n1ncc(C(=O)c2cccc(C#N)c2)c1N
AUC(0-t) (human, plasma; oral, dose not given, geometric mean, with: itraconazole 200 mg oral daily days 1-14): 6.64 µg·h/mL

Cc1ccc(NC(=O)c2ccc(CN3CCN(C)CC3)cc2)cc1Nc1nccc(-c2cncc(-c3oncc3C)c2)n1
AUC(0-t) (older healthy human adults, plasma; oral, 125 mg single dose, fed, mean): 109 µg·h/mL

For quick reference, copied from above:
Cc1[nH]c(/C=C2\C(=O)Nc3ccc(F)cc32)c(C)c1C(=O)N[C@H]1CCN(C(=O)N(C)C)C1
AUC(0-t) (human, plasma; oral, 200 mg once daily multiple dosing, with: everolimus 5 mg): 6.71 ± 5.32 µg·h/mL

CC(C)[C@@H](CS(=O)(=O)C(C)C)N1C(=O)[C@@](C)(CC(=O)O)C[C@H](c2cccc(Cl)c2)[C@H]1c1ccc(Cl)cc1
AUC(0-t) (human, plasma; oral, 60 mg, new tablet, fasted, geometric LS mean): 2.86 µg·h/mL

CN(Cc1nc2c(N)nc(N)nc2[nH]c1=O)c1ccc(C(=O)N[C@@H](CCC(=O)O)C(=O)O)cc1
AUC(0-t) (human, plasma; oral, 20 mg methotrexate, day 1, alone, arithmetic mean): 1.8 µg·h/mL
